Published values collected from several papers.
Compare with care: the assays were run in different laboratories. Numbers after ± are the reported error.
Chain of UniProt P61073 (whole entry, looked up): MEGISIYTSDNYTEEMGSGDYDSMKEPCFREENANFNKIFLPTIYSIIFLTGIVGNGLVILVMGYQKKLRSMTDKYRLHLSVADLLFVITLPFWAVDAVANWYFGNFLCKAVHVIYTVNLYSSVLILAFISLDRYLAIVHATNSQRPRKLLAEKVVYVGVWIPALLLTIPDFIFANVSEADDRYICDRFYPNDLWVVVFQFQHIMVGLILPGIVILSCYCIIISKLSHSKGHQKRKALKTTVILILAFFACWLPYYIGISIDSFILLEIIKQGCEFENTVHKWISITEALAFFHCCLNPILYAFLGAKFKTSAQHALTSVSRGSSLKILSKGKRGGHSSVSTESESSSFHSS
Chain of UniProt P08684 (whole entry, looked up): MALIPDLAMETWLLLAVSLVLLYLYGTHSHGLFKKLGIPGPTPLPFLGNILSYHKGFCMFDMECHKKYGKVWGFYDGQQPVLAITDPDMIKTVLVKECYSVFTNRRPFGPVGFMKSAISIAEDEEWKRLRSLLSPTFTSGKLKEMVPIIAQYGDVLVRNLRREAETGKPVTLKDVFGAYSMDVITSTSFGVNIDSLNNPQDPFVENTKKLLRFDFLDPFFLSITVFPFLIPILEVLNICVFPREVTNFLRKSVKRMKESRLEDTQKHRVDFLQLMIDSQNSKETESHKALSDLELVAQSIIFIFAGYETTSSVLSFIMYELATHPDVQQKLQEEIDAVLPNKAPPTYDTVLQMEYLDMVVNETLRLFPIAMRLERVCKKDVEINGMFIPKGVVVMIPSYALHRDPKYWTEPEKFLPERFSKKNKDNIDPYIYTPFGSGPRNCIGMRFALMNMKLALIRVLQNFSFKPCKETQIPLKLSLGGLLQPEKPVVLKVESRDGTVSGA
Chain of UniProt Q9UNQ0 (whole entry, looked up): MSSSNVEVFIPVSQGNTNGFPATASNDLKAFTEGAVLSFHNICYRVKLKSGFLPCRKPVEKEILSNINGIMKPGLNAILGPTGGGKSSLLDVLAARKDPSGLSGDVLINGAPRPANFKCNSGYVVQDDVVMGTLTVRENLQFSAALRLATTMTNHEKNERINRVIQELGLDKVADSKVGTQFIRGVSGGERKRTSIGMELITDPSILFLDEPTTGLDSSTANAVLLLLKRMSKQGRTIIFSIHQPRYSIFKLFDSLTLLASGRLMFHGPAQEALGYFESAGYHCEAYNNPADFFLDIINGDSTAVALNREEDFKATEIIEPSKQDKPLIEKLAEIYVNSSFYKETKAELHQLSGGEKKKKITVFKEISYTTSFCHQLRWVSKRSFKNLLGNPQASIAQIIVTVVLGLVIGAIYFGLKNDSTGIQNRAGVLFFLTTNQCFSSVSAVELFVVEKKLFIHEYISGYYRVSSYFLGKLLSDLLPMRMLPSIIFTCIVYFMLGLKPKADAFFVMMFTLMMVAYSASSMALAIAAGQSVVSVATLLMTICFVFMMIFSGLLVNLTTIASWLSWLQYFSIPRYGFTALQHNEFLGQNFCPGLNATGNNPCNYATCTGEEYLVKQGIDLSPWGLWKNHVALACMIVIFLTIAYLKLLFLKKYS

Compound	tested on	test	test system	setting	how to read	measurement	result
CN(C)CC1CCCCC1(O)c1cccc(O)c1 (stereo not drawn)	P-glycoprotein		Caco-2 TC7	1 µM, 3 h, pH 6.8 apical, 7.4 basolateral, with: cyclosporin A 10 µM		Papp A to B	73 ± 2 nm/s
O=C1c2ccccc2-c2c1c1c(O)cc(-c3ccccc3)cc1n2Cc1ccccc1	ABCG2 (Homo sapiens, UniProt Q9UNQ0)	mitoxantrone efflux, inhibitor, flow cytometry	HEK293 transfected with ABCG2	10 µM, 30 min, with: mitoxantrone 5 µM	reference: Ko143 1 µM	inhibition	56%
COC(=O)C[C@](O)(CCCC(C)(C)OC(C)=O)C(=O)O[C@@H]1C(OC)=C[C@]23CCCN2CCc2cc4c(cc2[C@H]13)OCO4			CD1 mouse, lung	oral, 1 mg/kg, 0.5 h		tissue concentration	641 ng/mL
Nc1nc2c([C@@H]3O[C@@H]4COP(=O)(O)O[C@H]5[C@@H](O)[C@H](c6scc7c(=O)[nH]c(N)nc67)O[C@@H]5COP(=O)(O)O[C@H]4[C@H]3O)scc2c(=O)[nH]1			water			emission maximum	457 nm
CCC(=O)N(C)c1ccc(Cl)c(Cl)c1	Escherichia coli	Ames test	WP2 uvrA	0.05 mg/plate, without S9		revertants	36 ± 7.5 revertants/plate
CC(C)[C@H](NC(=O)CNC(=O)[C@H](CCC(N)=O)NC(=O)[C@H](C)N)C(=O)O			human	30 mg/kg, 3 days, thrice daily dosing		discontinuation due to adverse events	0%
CC[C@H](C)C(=O)N1CCC(NC(=O)Nc2ccc(OC(F)(F)F)c(F)c2)CC1			healthy volunteers	oral, 8 mg single dose		subjects with insomnia TEAE	0%
CCN(CC)Cc1cc(Nc2c(C3CCCC3)c(C)nc3cc(Cl)ccc23)ccc1O	Vero WNV replicon cells			24 h		CC50	14.6 ± 0.51 µM
COc1c(OC(=O)N(C)c2ccccc2Br)cc2oc3cc4c(c(O)c3c(=O)c2c1CC=C(C)C)C=CC(C)(C)O4	PC-12	cell proliferation, MTT		10 µM, 24 h		inhibition	0%
O=C(N=P12CN3CN(CN(C3)C1)C2)c1ccccn1.[Cl][Pd][Cl]		NMR	DMSO	room temperature		stability time	> 7 days
CCCCCCCCCCCCC(=O)O.O=C1CCCC2C3CCCN4CCCC(CN12)C34 (stereo not drawn)		conductometry	water	303.15 K		limiting molar conductivity	47.9 ± 0.09 S cm²/mol
CN[C@](C)(C[18F])C(=O)O	MDA-MB-468 tumour model		host not given, muscle	2 h, tumour-bearing		tracer uptake	1.3 %ID/g
O=C(O)CCC(NP(=O)(O)OCCC[C@@H](NC(=O)CCC(NC(=O)CCCCCNC(=O)c1ccc([18F])cc1)C(=O)O)C(=O)O)C(=O)O (stereo partly drawn)	CWR22Rv1 tumour model		host not given, blood	intravenous, 2 h, tumour-bearing		tracer uptake	0.04 %ID/g
O=C1c2c(ccc(O)c2O)CN1Cc1cccc(Cl)c1F	HOS	ATPlite		48 h		CC50	7.8 ± 2.1 µM
COc1ccc(CNc2nc(N3CCC[C@H]3CO)ncc2C(=O)NN)cc1Cl	Salmonella typhimurium		TA102	62.5 µg/plate		revertant count	264 ± 14
O=C(O)CCC(NP(=O)(O)OCCC[C@@H](NC(=O)CCC(NC(=O)c1ccc([18F])cc1)C(=O)O)C(=O)O)C(=O)O (stereo partly drawn)	CWR22Rv1 tumour model		host not given, liver	intravenous, 2 h, tumour-bearing		tracer uptake	0.5 %ID/g
CC(C)(O)c1ccccc1CC[C@H](c1cccc(/C=C/c2ccc3ccc(Cl)cc3n2)c1)S(=O)(=O)CC1(CC(=O)O)CC1	Cytochrome P450 3A4 (CYP3A4, Homo sapiens, UniProt P08684)	inhibitor		10 µM, pH 7.4		inhibition	< 0%
C[C@@](O)(C(F)F)[C@H](NC(=O)c1ccc(C#CC#CC2CC2)cc1)C(=O)NO			dog, plasma	intravenous, 30 mg/kg		half-life	1.5 h
COc1cc(C(=O)NCCOCCOCCOCCNC(=O)c2ccc([18F])nc2)ccc1NC(=O)C1NC(CC(C)(C)C)C(C#N)(c2ccc(Cl)cc2F)C1c1cccc(Cl)c1F (stereo not drawn)	SJSA-1 tumour model		host not given, tumour	1 h, tumour-bearing		tracer uptake	1.32 %ID/g
O=C(O)CCC(NP(=O)(O)OCCC[C@@H](NC(=O)CCC(NC(=O)CCCCCNC(=O)CCCCCNC(=O)c1ccc([18F])cc1)C(=O)O)C(=O)O)C(=O)O (stereo partly drawn)	CWR22Rv1 tumour model		host not given, blood	intravenous, 1 h, tumour-bearing		tracer uptake	0.12 %ID/g
COc1cc(NC(=O)C(=O)c2c(C)n(Cc3ccc(Cl)cc3)c3ccc(C)cc23)ccn1			cynomolgus monkey, plasma	oral, 10 mg/kg		half-life	18.7 h
CN1C(=O)[C@@H](Cc2ccc(O)cc2)NC(=O)CNC(=O)[C@H](Cc2ccc3ccccc3c2)NC(=O)[C@H](CCCNC(=N)N)NC(=O)[C@H]1CCCNC(=O)c1ccc(CNC(=O)CN2CCN(CC(=O)O)CCN(CC(=O)O)CCN(CC(=O)O)CC2)cc1 [gallium-68 labelled]	CXCR4 (Homo sapiens, UniProt P61073)	PET imaging	human, bladder			SUVmean	36.4
Nc1nc2c([C@@H]3O[C@@H]4COP(=O)(O)O[C@H]5[C@@H](O)[C@H](n6cnc7c(=O)[nH]c(N)nc76)O[C@@H]5COP(=O)(O)O[C@H]4[C@H]3O)snc2c(=O)[nH]1			water			emission quantum yield	0.048
Cc1nc([C@H](NC(=O)c2ccc(-c3ccc(Cl)cc3)[nH]2)[C@@H]2CCCCN2)sc1CO	TZM-bl	cell growth or viability, XTT				CC50	~24 µM
CCCCCc1cc(OC(=O)C(NC(=O)CCC(=O)O)C(C)C)c2c(c1)OC(C)(C)C1CCC(C)=CC21 (stereo not drawn)			isolated rabbit cornea	3 h, pH 7.4, 34 °C, donor 1.5% HPβCD		Papp	143 ± 6.3 nm/s
Nc1nc2c([C@@H]3O[C@@H]4COP(=O)(O)O[C@H]5[C@@H](O)[C@H](c6snc7c(=O)[nH]c(N)nc67)O[C@@H]5COP(=O)(O)O[C@H]4[C@H]3O)snc2c(=O)[nH]1			water			emission quantum yield	0.039
COc1ccc(CNc2nc(N3CCC[C@H]3CO)ncc2C(=O)NNC(=O)c2cnc(N3CCC[C@H]3CO)nc2NCc2ccc(OC)c(Cl)c2)cc1Cl	Salmonella typhimurium		TA97a	1000 µg/plate, 48 h		revertant count	57 ± 6

Some of these lines once more:
Compound	tested on	test	test system	setting	how to read	measurement	result
COc1cc(NC(=O)C(=O)c2c(C)n(Cc3ccc(Cl)cc3)c3ccc(C)cc23)ccn1			cynomolgus monkey, plasma	oral, 10 mg/kg		half-life	18.7 h
O=C(O)CCC(NP(=O)(O)OCCC[C@@H](NC(=O)CCC(NC(=O)c1ccc([18F])cc1)C(=O)O)C(=O)O)C(=O)O (stereo partly drawn)	CWR22Rv1 tumour model		host not given, liver	intravenous, 2 h, tumour-bearing		tracer uptake	0.5 %ID/g
CN1C(=O)[C@@H](Cc2ccc(O)cc2)NC(=O)CNC(=O)[C@H](Cc2ccc3ccccc3c2)NC(=O)[C@H](CCCNC(=N)N)NC(=O)[C@H]1CCCNC(=O)c1ccc(CNC(=O)CN2CCN(CC(=O)O)CCN(CC(=O)O)CCN(CC(=O)O)CC2)cc1 [gallium-68 labelled]	CXCR4 (Homo sapiens, UniProt P61073)	PET imaging	human, bladder			SUVmean	36.4
